Results from different studies.
Values joined by “and” are separate records of one study, mostly repeats; a detail may differ.
RPS6KA6 C-terminal kinase domain: Ribosomal protein S6 kinase alpha-6, C-terminal kinase domain (RPS6KA6, Homo sapiens, UniProt Q9UK32)
RPS6KA6 N-terminal kinase domain: Ribosomal protein S6 kinase alpha-6, N-terminal kinase domain (RPS6KA6, Homo sapiens, UniProt Q9UK32)
RPS6KA6: Ribosomal protein S6 kinase alpha-6 (RPS6KA6, Homo sapiens, UniProt Q9UK32)

With COc1cc(Nc2nccc(-c3cnn4nc(OC)ccc34)n2)cc(C(F)(F)F)c1 the remaining binding was 100% (RPS6KA6 C-terminal kinase domain; binding, competition with immobilised ligand; 1 µM).
Cc1ccc(-c2c(/C=C(\C#N)C(=O)NC(C)C)n(CCCO)c3ncnc(N)c23)cc1 gave a remaining binding of 2% (RPS6KA6 C-terminal kinase domain; binding, competition with immobilised ligand; 1 µM).
For Nc1ncc2c(n1)-c1c([nH]c3ccc(C4=CCOCC4)cc13)CCC2, the remaining binding was 76% (RPS6KA6 N-terminal kinase domain; binding, competition with immobilised ligand; 1 µM).
COc1ccc(C(=O)/C=C/c2ccccc2-c2c[nH]c3ccc(C#N)cc23)c(O)c1 has an inhibition of -11% (RPS6KA6; enzyme activity, inhibitor; 20 µM).
The remaining signal of Cc1cnc2nc1Nc1cccc(c1)COC/C=C/COCc1cc(ccc1OCCN1CCOCC1)N2 is reported as 100% (RPS6KA6 C-terminal kinase domain; cell-free assay; 0.1 µM).
With C=CC(=O)N1CCCC(n2c(=O)c3ncccc3n(Cc3ccc(Oc4ccccc4)cc3)c2=O)C1 (stereo not drawn) the remaining binding was 83% (RPS6KA6 N-terminal kinase domain; binding, competition with immobilised ligand; 1 µM).
CNC(=O)C1CCN(c2cc(C)c(F)cc2NC(=O)c2ccc(-c3cc(O)ccc3C)c(C)c2)CC1 gave a remaining binding of 100% (RPS6KA6 N-terminal kinase domain; binding, competition with immobilised ligand; 1 µM).
With Cc1c[nH]c2nccc(-c3ccc(C(=O)N[C@@H]4c5c(F)cc(C(F)F)cc5C[C@@H]4O)cn3)c12 the remaining binding was 7.4% (RPS6KA6 N-terminal kinase domain; binding, competition with immobilised ligand; 3 µM).
CN1CC[C@@H](COc2cnc(C#N)cc2-c2ccn3nc(NC(=O)C4CC4)cc3c2)C1 has an inhibition of 11% (RPS6KA6; enzyme activity, inhibitor; 1 µM).
The remaining binding of CC(C)=CC1OC(C)(C)C2C=C3C(=O)C(Cl)=CC(O)C3C3C(O)C4OC4C(=O)C132 (stereo not drawn) is reported as 49% (RPS6KA6 N-terminal kinase domain; cell-free assay, competition with immobilised ligand; 10 µM).
Cc1cccc(O[C@H]2CCC[C@@H](C(C)CNCc3ccncc3)C2)c1 (relative stereo) has an inhibition of -2% (RPS6KA6; kinase activity, kinome panel screening; 1 µM).
COCC12C(=O)NC3C4(C(OC)CC1O)C1CC5(O)C(OC)C(O)C(OC(C)=O)(C1C5OC(=O)c1ccccc1)C3(O)C(OC)C24 (stereo not drawn) has a remaining activity of 98% and 107% (RPS6KA6; kinase activity, inhibitor, ProQinase kinase profiling; 25 µM; reference: control).
For COc1ccc(NC(=O)Nc2ccc3c(c2)C(=O)N(C(C)CO)CC(C)C(CN(C)Cc2ccc4c(c2)OCO4)O3)cc1 (stereo not drawn), the remaining activity was 90% (RPS6KA6; kinase activity, KinaseProfiler; 0.03 µM, species human; reference: control).
With C=CC(=O)Nc1cccc(-c2cnc3[nH]cc(C(=O)NC(C)(C)C)c3n2)c1 the inhibition was 20% (RPS6KA6; enzyme activity, inhibitor; 0.1 µM).
COc1c(OCCCN2CCOCC2)ccc2c1N=C(NC(=O)c1cnc(N)nc1)N1CCN=C21 has a remaining activity of 114% (RPS6KA6; kinase activity, inhibitor; 1 µM; reference: untreated control).
COc1cc(Nc2nc(C)cc(-c3cnn4nc(OC)ccc34)n2)cc(C(F)(F)F)c1 has a remaining binding of 82% (RPS6KA6 C-terminal kinase domain; binding, competition with immobilised ligand; 1 µM).
NC(=O)[C@@H](O)C[C@H]1CCc2sc3ncnc(O[C@H]4CC[C@H](N5CCOCC5)CC4)c3c21 gave an inhibition of 21% (RPS6KA6; enzyme activity, inhibitor; 10 µM).
C=CC(=O)N1CCc2ccc(-n3c(=O)ccc4cnc5ccc(-c6cnn(C)c6)cc5c43)cc21 has a remaining binding of 92% (RPS6KA6 N-terminal kinase domain; KINOMEscan; 1 µM; reference: DMSO control).
COc1c(Cl)cccc1Nc1c(-c2ccncc2C#C[C@@]2(C)CCCN2C(=O)/C=C/CN(C)C)[nH]c2c1C(=O)NCC2 has a remaining binding of 88% (RPS6KA6 N-terminal kinase domain; binding, competition with immobilised ligand; 3 µM).
For CCN1CCN(Cc2ccc(C(=O)Nc3ccc(C)c(NCc4cnc5[nH]ccc5c4OC)c3)cc2C(F)(F)F)CC1, the remaining binding was 69% (RPS6KA6 C-terminal kinase domain; binding, competition with immobilised ligand; 1 µM).
For CNC1C[S+]2CC[S+]3CC[S+](C1)[Ru-4]321([N]=C=S)[n]2c3ccc(OC)cc3c3c4c(c5cc(F)c[n+]1c5c32)C(=O)NC4=O (stereo not drawn), the remaining binding was 20% (RPS6KA6 N-terminal kinase domain; KinomeScan; 0.1 µM; reference: untreated).

Some of these lines once more:
With COc1cc(Nc2nccc(-c3cnn4nc(OC)ccc34)n2)cc(C(F)(F)F)c1 the remaining binding was 100% (RPS6KA6 C-terminal kinase domain; binding, competition with immobilised ligand; 1 µM).
Cc1ccc(-c2c(/C=C(\C#N)C(=O)NC(C)C)n(CCCO)c3ncnc(N)c23)cc1 gave a remaining binding of 2% (RPS6KA6 C-terminal kinase domain; binding, competition with immobilised ligand; 1 µM).
